Measurements gathered from unrelated publications.
Protocols differ between the studies behind these lines. “And” joins repeats or separate records; there may be more than shown. Numbers after ± are the reported error. Converted amounts (≈) assume the structure as drawn.

`Cc1ccc(Nc2nccc(N(C)c3ccc4c(C)n(C)nc4c3)n2)cc1S(N)(=O)=O` has a steady-state concentration of 30.9 ± 11.2 µg/mL (HPLC-MS/MS; patients, plasma total drug; oral, 800 mg daily).
With `CS(=O)(=O)n1cc2c(n1)CN([C@H]1CO[C@H](c3cc(F)ccc3F)[C@@H](N)C1)C2` the beta-phase half-life was 93 to 116 h (human, plasma; oral, single low doses).
`O=C1N=C(N2CCOCC2)CN1c1ccc(Cl)cc1` gave a terminal half-life of 1.72 h (beagle dog, female; oral, 30 mg/kg, tablets).
The blood concentration of `CON` is reported as 10.3 ng/mL (human, whole blood on ice; 90 min before centrifugation).
`Cl.Cl.NCCCn1c2c(c3ccc(N)cc3c1=O)C(=O)c1ccccc1-2` has a tissue concentration of 3.75 µg/g and 5.03 µg/g (Sprague-Dawley female rat, liver; oral, 40 mg/kg/day for 3 days, 3 h after final dose).
Under “moderate pain-producing concentration”, `COc1cc(CNC(=O)CCCCC=CC(C)C)ccc1O` is recorded as 0.041 mg/mL (eye-wiping; C57BL/6 mice, both sexes; ocular instillation, 1 min).
`O=C(c1nc2n(n1)[C@H](c1ccccc1)C[C@@H]2F)C1CC1` gave a concentration of 924 ng/mL (human, plasma; oral, 225 mg, 24 h, single dose, fasted, healthy volunteers).
For `C[C@](N)(Cc1ccc(O)c(O)c1)C(=O)O`, the solubility was 369 µg/mL (≈ 1750 µM) (static gravimetric method; supercritical CO2, 871.5 kg/m3; 5 h, 323 K, pressure 30 MPa).
For `CC[C@H](C)[C@H](NC(=O)[C@H](CCC(=O)O)NC(=O)[C@H](CO)NC(=O)[C@@H](NC(=O)[C@@H](N)CO)C(C)C)C(=O)N[C@@H](CCC(N)=O)C(=O)N[C@@H](CC(C)C)C(=O)N[C@@H](CCSC)C(=O)N[C@@H](Cc1cnc[nH]1)C(=O)N[C@@H](CC(N)=O)C(=O)N[C@@H](CC(C)C)C(=O)NCC(=O)N[C@@H](CCCCN)C(=O)N[C@@H](Cc1cnc[nH]1)C(=O)N[C@@H](CC(C)C)C(=O)N[C@@H](CC(N)=O)C(=O)N[C@@H](CO)C(=O)N[C@@H](CCSC)C(=O)N[C@@H](CCC(=O)O)C(=O)N[C@@H](CCCN=C(N)N)C(=O)N[C@H](C(=O)N[C@@H](CCC(=O)O)C(=O)N[C@@H](Cc1c[nH]c2ccccc12)C(=O)N[C@@H](CC(C)C)C(=O)N[C@@H](CCCN=C(N)N)C(=O)N[C@@H](CCCCN)C(=O)N[C@@H](CCCCN)C(=O)N[C@@H](CC(C)C)C(=O)N[C@@H](CCC(N)=O)C(=O)N[C@@H](CC(=O)O)C(=O)N[C@H](C(=O)N[C@@H](Cc1cnc[nH]1)C(=O)N[C@@H](CC(N)=O)C(=O)N[C@@H](Cc1ccccc1)C(=O)O)C(C)C)C(C)C`, the t1/2 was 1.32 ± 0.467 h (human, plasma; sc, 56.5 µg once weekly, day 1, arithmetic mean).
`Oc1ccc(/C=C/c2cc3ccc4cccc5ccc(c2)c3c45)cc1O` — result for “linear absorbance range”: at most 2 µM (water; aggregation above range).
With `CN(C)Cc1c(C(=O)NCCOc2ccc(C(=O)NO)cc2)oc2ccccc12` the half-life (median) was 4.81 h (human, plasma; oral, 80 mg, single dose on day -3).
`Cc1cc(C)c(C#N)c(SCC(=O)c2ccc(Cl)cc2Cl)n1` gave a microsomal CLint of 802 µL/min/mg (metabolic stability; human, liver microsomes; 0.5 µM, pH 7.4).
With `acyl ghrelin (human)` the brain/serum ratio was 5.11 µL/g (mouse, Ghsr knockout, cortex; intravenous, 10 min).
The ALT of `O=C1CN(/N=C/c2ccc(-c3ccc([N+](=O)[O-])cc3)o2)C(O)=N1` is reported as 42.4 ± 5 U/L (Sprague-Dawley rat, male, blood; oral, 100 mg/kg, 24 h).
`Cn1ncc(Cl)c1-c1cc(C(=O)N[C@H](CN)Cc2ccc(F)c(F)c2)oc1Cl` gave an effective half-life of 42.7 to 48.1 h (human patients, plasma; oral, 10 mg once daily, day 8, repeat dose).
For `Cc1cc(Nc2ncc(Cl)c(Nc3ccccc3S(=O)(=O)C(C)C)n2)c(OC(C)C)cc1C1CCNCC1`, the Css,min was 0.012 µM (item: unbound drug; patients, plasma; oral, 750 or 450 mg/day, 23.7 h, arithmetic mean).
For `O=C(CCc1ccc(F)cc1)c1ccccc1OCC(O)CN1CCN(C(c2ccccc2)c2ccccc2)CC1` (stereo not drawn), the scaled CLint was 4.8 mL/min/kg (metabolic stability; human, liver microsomes; 20 µM, pH 7.4).
For `CO[C@H]1C[C@@H]2CC[C@@H](C)[C@@](O)(O2)C(=O)C(=O)N2CCCC[C@H]2C(=O)O[C@H]([C@H](C)C[C@@H]2CC[C@@H](O)[C@H](OC)C2)CC(=O)[C@H](C)/C=C(\C)[C@@H](O)[C@@H](OC)C(=O)[C@H](C)C[C@H](C)/C=C/C=C/C=C/1C`, the terminal half-life was 99.5 ± 89.5 h (healthy dogs, whole blood; oral, 0.1 mg/kg once daily, 5 days).
For `Cn1c(-c2ccc(C(N)=O)cc2F)nnc1C(C)(C)Oc1c(F)cc(Cl)cc1F`, the Tmax median was 3.02 h (healthy young Japanese subjects, plasma; oral, 50 mg once daily, day 18, 14 days dosing).
The Cmax of `CNCc1ccc(-c2[nH]c3cc(F)cc4c3c2CCNC4=O)cc1` is reported as 502 ng/mL (human, fed high-fat meal, plasma; oral, 300 mg, cycle 1 day 1, single dose, arithmetic mean).
For `CCCCOCCOc1ccc(-c2ccc3c(c2)/C=C(/C(=O)Nc2ccc([S@@+]([O-])Cc4cncn4CCC)cc2)CCCN3CC(C)C)cc1`, the effective half-life was 25.4 h (human, moderate hepatic impairment; oral, 150 mg).
For `O=C(O)Cc1ccccc1Nc1c(Cl)cccc1Cl`, the remaining compound was 38 ± 3.2% (glucuronidation; human liver microsomes; 30 min, together with: UDPGA).
For `COc1cccc(N2CCN(C3=Nc4c(F)cccc4[C@H](CC(=O)O)N3c3cc(C(F)(F)F)ccc3OC)CC2)c1`, “volume of distribution” read 124 ± 44.6 L (UHPLC-MS/MS; healthy women, plasma; intravenous infusion, 240 mg single dose, 30 min infusion, HPβCD formulation).
`CC(C)(CC(=O)N1CCCC1)NCC(=O)N1C[C@@H](F)C[C@H]1C#N` — result for “AUC(0-t) at steady state”: 747 ng·h/mL (Chinese type 2 diabetes patients, plasma; oral, 50 mg once daily, multiple doses).
Under “AUC(tau) steady state”, `COC(=O)c1ccc2c(c1)NC(=O)/C2=C(\Nc1ccc(N(C)C(=O)CN2CCN(C)CC2)cc1)c1ccccc1` is recorded as 1060 ng·h/mL (human moderate liver impairment, plasma; oral, 200 mg twice daily, geometric mean).
For `COc1cccc(CN)c1O`, the brain concentration was 191 µM (mouse C57BL/6N male, brain; oral drinking water, 7 g/L/day, 1 week).
For `CC(C)(Sc1ccncc1-c1ccc(C#N)c2ccccc12)C(=O)O`, the t1/2 was 8.65 h (human, male, Japanese, plasma; oral, 2.5 mg, day 6, fed, single dose).

Excerpt of the above:
`O=C1N=C(N2CCOCC2)CN1c1ccc(Cl)cc1` gave a terminal half-life of 1.72 h (beagle dog, female; oral, 30 mg/kg, tablets).
`Cc1ccc(Nc2nccc(N(C)c3ccc4c(C)n(C)nc4c3)n2)cc1S(N)(=O)=O` has a steady-state concentration of 30.9 ± 11.2 µg/mL (HPLC-MS/MS; patients, plasma total drug; oral, 800 mg daily).
For `Cc1cc(Nc2ncc(Cl)c(Nc3ccccc3S(=O)(=O)C(C)C)n2)c(OC(C)C)cc1C1CCNCC1`, the Css,min was 0.012 µM (item: unbound drug; patients, plasma; oral, 750 or 450 mg/day, 23.7 h, arithmetic mean).
